Results pooled from the literature.
Every numbered part comes from another study and shows a few of its results, in no order. Changes are numbered by the printed parent chain.

Block 1 — method: DHFR PCA, deep sequencing; sample: yeast; with: (+)-ABA 58 µM; baseline: wild-type fitted maximum; reading: higher = stronger binding; quantity: relative binding score
Target: ABI1, truncated, D143A, DHFR fusion (Arabidopsis thaliana)
Notes: methotrexate growth selection, single substitutions
Starting sequence: PYL1, truncated, DHFR fusion (Arabidopsis thaliana); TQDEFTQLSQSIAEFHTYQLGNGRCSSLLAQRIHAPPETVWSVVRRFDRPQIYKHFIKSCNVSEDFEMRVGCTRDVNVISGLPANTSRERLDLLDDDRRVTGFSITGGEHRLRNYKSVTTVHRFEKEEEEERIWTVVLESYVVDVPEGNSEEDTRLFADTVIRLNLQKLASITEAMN
L93Y: 87.5%
R111F: 27%
E147K: 79.1%
F56L: 77.1%
F66N: 71.4%
R163H: 67.3%
Q10V: 83%
E151A: 88.7%
F103C: 0.248%
G21L: 81.8%
M176F: 65.2%
Q19E: 94.3%
E139N: 72%
D3Q: 90.4%
T101K: 3.74%
S117N: 3.87%
I105V: 89.5%
A13T: 75.2%
D92I: 40.3%
T1Q: 92.6%
R98M: 82.9%
D144P: 43.1%
F15G: -8.56%

Block 2 — method: RNA Bind-n-Seq; molecule type: RNA; sample: in vitro; concentration: 365 nM; baseline: no-protein control; reading: higher = stronger binding; quantity: RBNS enrichment (R)
Target: RNA binding protein fox-1 homolog 2, RRM domain, GST-SBP tag (RBFOX2, Homo sapiens, UniProt O43251-10, residues 100-194)
Notes: natural RNA segment, single round, ends assumed
Constant ends, left off below: GGGAGUUCUACAGUCCGACGAUC … UGGAAUUCUCGGGUGCCAA
Construct (chain): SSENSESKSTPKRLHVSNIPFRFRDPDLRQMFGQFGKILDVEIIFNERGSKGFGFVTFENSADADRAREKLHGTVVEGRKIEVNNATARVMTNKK
GACUGGAAUGUGGGCAGCGCCCACACAGGCUCUGGCCCAUGGCUUCCUACUGGCAGCUCCAGGCACCCCCCUCUCACCACGCCGUUUGCUGGCUCUGACACUGUUGGGUG: 0.43
AUUCCUUAUCAGAUAGUAAGUAACCUGUAAGUUUGGAGUAUUACUGUUUUCUCAGCAUGCAUUAAAAAUAUUCCUUAACUUCAAUUGUAAAUAAACUUUUGGUGUUAGGG: 9.89
UUUAAAGUGUUUUCCUUAAUGUUCUCUGAAAACAAGUUUCUUUUGUAGUUUUAACCAAAAAAGUGCCCUUUUUGUCACUGGAUUCUCCUAGCAUUCAUGAUUUUUUUUUC: 1.13
CAUACCAUCAGUUUCUCAGUUCCAGAAGUUAUACCUUUAUUUUGAGCUGUGUAUAGGUAGAAUAAAAAAUUCCUUUCAUAUCGUUAUUGUACAAAAAGUAAAGAGUAUCC: 0.571
ACUAUGCCAUCCUGCAGCUGAAAUGGGAACACUGGCUGCCUCUCCAAACCCGCUCUUGGACAGAGGAUCUGGGAGGUGGAAGCCAGGCCAGAGGACUUGGGGAAAAUGAG: 0.814
CAGGGGACAGGAAUCCGUACCCAACUGCCCCGUUCUUUCUUCCCAUUCUUUCUUCCUAGGAUGCAUAAACUAUCUUGUCUCAUUUAUUUUUUAAUUUUUUUUCAGAUAGA: 0.502
AGCUGCAGAAGUCACCUACUUGUGGGUCUAGGGUAAUGAACACAUAGAUCUAUUUGACUUAAUAAGUAGGAACCCCCUUUGCCCUUCCCCCAUCUCCUCUCCCUUACUGU: 0.747
AGAAUCUGCUGCUCUGGAAUAUUUCCCUUCGAUCUUAUCUCAGUCACUUCGUUUUUGAGAAGAGUGAUGCCUUGGGCAUGCUUUUUUUUUUUUCUUUUUUAGAAAACAGG: 0.539
AUUUAUUUUGUGUAAGUAAGGGUUUGACCUAAAAAGAGCUCACGUGCACAUUAGCAAGUGUCCUCAUGCCCGCACCCGGUUUGUGUUGUAGAUCAACUAGCCAACGCCCU: 0.211
GCCUCUCCAGGCCAGCUCCUCUGCCCACAUGUCAUACAAGGUGUGAAUUUGAGCACAGUCCAGAAAUGGAGACAUCCCACCCCCAGUUGAAUAAUGGCCCAUUCAUGCCA: 0.273
AAUCCGUAGUUUGUGGGUAUCAGUUGCGGUAGAGAUGCAACAUUUGUGACUCUGUUGCUAACGGUUACCACUUCCGAUCGCCCUGUACAUACAUAUGCCGUAAGGCGCAA: 0.249
UGUAUUAGAAAUGCAAGUUCCCAGCCCCAUCCCAGACCUACUGAAUCAGAAACUCUGGGGGCGAGGGCUGAAACCUGCUUUCAUAAGCCCUUCAGGCGAUACUGAUGUAA: 0.264

Block 3 — method: RNA Bind-n-Seq; molecule type: RNA; sample: in vitro; concentration: 1 µM; notes: whole 134-nt RNA, ends assumed; with: 150 mM KCl; baseline: input library; reading: higher = stronger binding; quantity: log2 enrichment
Target: Ras GTPase-activating protein-binding protein 1, C-terminal RGG region (G3BP1, Homo sapiens, UniProt Q13283)
UniProt Q13283, sequence (whole entry, looked up): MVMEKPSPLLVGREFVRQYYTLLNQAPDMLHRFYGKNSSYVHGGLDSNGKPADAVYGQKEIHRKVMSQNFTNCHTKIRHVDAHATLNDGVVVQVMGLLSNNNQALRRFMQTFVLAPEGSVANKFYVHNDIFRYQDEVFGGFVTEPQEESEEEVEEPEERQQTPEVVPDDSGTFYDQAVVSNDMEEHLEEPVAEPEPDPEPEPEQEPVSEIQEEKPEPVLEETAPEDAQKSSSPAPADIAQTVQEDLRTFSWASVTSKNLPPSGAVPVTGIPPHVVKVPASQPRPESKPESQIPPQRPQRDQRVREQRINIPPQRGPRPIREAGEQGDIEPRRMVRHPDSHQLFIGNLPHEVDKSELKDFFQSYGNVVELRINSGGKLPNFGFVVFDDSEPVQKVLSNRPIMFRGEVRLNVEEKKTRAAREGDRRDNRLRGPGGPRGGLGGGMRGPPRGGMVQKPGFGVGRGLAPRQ
Constant ends, left off below: GGGAGUUCUACAGUCCGACGAUC … UGGAAUUCUCGGGUGUCAAGG
UCCUGUGCUACACAUCGUAUGUACCGAAUCGGUUUUUUUGGAAAAAAAGGUUUUUUUGGAAAGUAUUAUGUUACGCCGUUCGGAUCUGCA: -1.57
UGGGUUCUUAUUUCUAACUUGCAUAUGUUUUGUUUUUCAGAAGGAGUUGAGCCUUCCAAGAAGAGGCAGCUUGUAAGUAGAUGAUUAUUA: -1.43
UCAAGUCCUGUGCUACACAUCGUAUGUACCGAAUCGGAAAAAGGUUUGGAAAGGAAAGUAUUAUGUUACGCCGUUCGGAUCUGCACUUCC: -1.37
CAAGUCCUGUGCUACACAUCGUAUGUACCGAAUCGGAAAGGAAAAAGGUUUUUGGAAAGUAUUAUGUUACGCCGUUCGGAUCUGCACUUC: -1.82
ACCAUGCAGGUGGGCAUCUUUGGGAAGUGGGGCAAGGGGGGGAUAGGGAGGGGGGUAACACUUUGUGAACAGGUGGUCCCAGGUCGUUUC: 2.19
UCAUUGCAUGAAAAGUGGAAAAGUUUAGAUCUAUGGAAACAGAACUGUUGCCUAUAUGGAAAAUCAGUGCCUUGUGGCAAUACAGGUAAG: -2.31
AAGUCCUGUGCUACACAUCGUAUGUACCGAAUCAAACCCCCAAAUUUAAAUUUAAAAAAGUAUUAUGUUACGCCGUUCGGAUCUGCACUU: -0.507
AGUCCUGUGCUACACAUCGUAUGUACCGAAUCGGGGAAAAAAAGGGGUGGGGUGGGGAAAGUAUUAUGUUACGCCGUUCGGAUCUGCACU: 1.41
CCUCAAGUCCUGUGCUACACAUCGUAUGUACCGAAUCGGUUUUUGGAGGUGGAAAGUAUUAUGUUACGCCGUUCGGAUCUGCACUUCCAG: -0.654
ACCAUGCAGAAAGGCAUCUUUGGGAAGUGGGGCAAGGGGGGGAUAGGGAGGGGGGUAACACUUUGGGAACAGGUGGUCCCAGGUCGUUUC: -0.812
GCAGGAAGUAAAAACAAAUGGAAAUGCUUCGGAUAGUGGCAGGGGUGGGGGUUGCUAAGGAAAGGGUGGAAAGGGAGUGGGUAAAGAGUU: 1.45
CCUGUGCUACACAUCGUAUGUACCGAAUCGGGGCCCCCCGGGCCCCCCGGGCCCCCCGGGGAAAGUAUUAUGUUACGCCGUUCGGAUCUG: -2.01
CACAGACAACACGCACCCACACAGACACAGAGGGAAGGGGUUGGGAUGGGGACAGGGUGCACAGCAGGGCGGGGUACGACCCCAGCCCCU: -0.441
CACAGACAACACGCACCCACACAGACACAGAGGGAAGGGGUUGUGAUGGGGACAGGGUGCACAGCAGGGCGGGGUAGGACCCCAGCCCCU: -0.619

Block 4 — method: protein binding microarray; molecule type: double-stranded DNA, one strand shown; sample: in vitro; concentration: not given; baseline: not given; reading: higher = stronger binding; quantity: E-score
Target: Histone acetyltransferase KAT6A, both winged helices, GST fusion (KAT6A, Homo sapiens, UniProt Q92794, residues 1-181)
Notes: 8-mer, flanks averaged, mean of 2 arrays, mostly near background
Target sequence (chain): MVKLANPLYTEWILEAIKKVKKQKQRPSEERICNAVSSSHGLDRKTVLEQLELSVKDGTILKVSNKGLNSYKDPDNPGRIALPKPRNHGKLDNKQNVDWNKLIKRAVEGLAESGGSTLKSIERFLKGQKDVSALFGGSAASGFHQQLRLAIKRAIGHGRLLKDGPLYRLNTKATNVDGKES
CCATGTCG: -0.165
TACAAACA: -0.0387
ATGACGTG: -0.0317
ACTGCTTC: 0.00787
GGCATAGA: 0.0469
ACAGGCGG: 0.154
GCATGACA: -0.0512
CAGCAGGC: -0.0154
GGAACATA: -0.126
ATTTCTGC: 0.0582
CTTAATAA: -0.025
TCGCTAAA: 0.109
CTTCTGAC: -0.189
GAATGCGC: 0.304
CGCTCGCA: 0.196
CCCGGAGC: 0.0988
ACCGCGGC: 0.389
ACAGATGG: -0.067
GGCAGGCC: -0.0364
AACGAGTG: -0.209
ACCAACGT: 0.00057

Block 5 — method: protein-binding microarray; molecule type: double-stranded DNA, one strand shown; sample: in vitro; concentration: not given; reading: higher = stronger binding; quantity: E-score
Target: Protein max, full length (MAX, Homo sapiens, UniProt P61244-2, residues 1-151)
Notes: k-mer, scored over probes, only values ≥0.25
CACCTGTA: 0.298
GATCACAC: 0.266
CGTGTAAG: 0.321
ATGCAGGC: 0.271
GCGTGCAC: 0.434
ATGGCCAC: 0.335
ATGCTCAC: 0.258
CATGCCCC: 0.348
CCGTGTTA: 0.271
CCCATGGG: 0.289
GTGCACAC: 0.286
ACGTGTCC: 0.418
CACACGGG: 0.335
ACGCCCGC: 0.293
